# Published values collected from several papers.
# A part holds a random share of what one study measured.
# Chain of UniProt O75582 (whole entry, looked up): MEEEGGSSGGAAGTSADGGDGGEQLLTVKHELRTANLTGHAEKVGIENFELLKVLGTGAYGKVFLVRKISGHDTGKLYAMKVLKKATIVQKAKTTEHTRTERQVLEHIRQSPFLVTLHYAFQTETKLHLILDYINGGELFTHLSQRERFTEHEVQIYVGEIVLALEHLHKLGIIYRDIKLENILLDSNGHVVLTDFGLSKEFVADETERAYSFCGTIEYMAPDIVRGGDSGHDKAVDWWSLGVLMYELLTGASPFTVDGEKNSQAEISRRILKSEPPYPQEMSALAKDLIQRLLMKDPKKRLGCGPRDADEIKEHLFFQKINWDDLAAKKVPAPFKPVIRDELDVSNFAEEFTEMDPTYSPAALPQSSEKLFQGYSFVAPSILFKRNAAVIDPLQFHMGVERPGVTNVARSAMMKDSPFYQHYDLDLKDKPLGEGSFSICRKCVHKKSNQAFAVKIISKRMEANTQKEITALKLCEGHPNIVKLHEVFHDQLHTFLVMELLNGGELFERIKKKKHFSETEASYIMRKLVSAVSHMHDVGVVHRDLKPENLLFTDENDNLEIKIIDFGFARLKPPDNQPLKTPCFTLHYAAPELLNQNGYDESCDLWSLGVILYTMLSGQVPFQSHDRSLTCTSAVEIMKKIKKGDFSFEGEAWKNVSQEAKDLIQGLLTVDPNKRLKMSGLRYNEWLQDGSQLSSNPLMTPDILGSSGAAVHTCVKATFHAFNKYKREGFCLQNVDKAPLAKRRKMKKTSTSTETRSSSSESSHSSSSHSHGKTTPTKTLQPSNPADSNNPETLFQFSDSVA
# Chain of UniProt P35916 (whole entry, looked up): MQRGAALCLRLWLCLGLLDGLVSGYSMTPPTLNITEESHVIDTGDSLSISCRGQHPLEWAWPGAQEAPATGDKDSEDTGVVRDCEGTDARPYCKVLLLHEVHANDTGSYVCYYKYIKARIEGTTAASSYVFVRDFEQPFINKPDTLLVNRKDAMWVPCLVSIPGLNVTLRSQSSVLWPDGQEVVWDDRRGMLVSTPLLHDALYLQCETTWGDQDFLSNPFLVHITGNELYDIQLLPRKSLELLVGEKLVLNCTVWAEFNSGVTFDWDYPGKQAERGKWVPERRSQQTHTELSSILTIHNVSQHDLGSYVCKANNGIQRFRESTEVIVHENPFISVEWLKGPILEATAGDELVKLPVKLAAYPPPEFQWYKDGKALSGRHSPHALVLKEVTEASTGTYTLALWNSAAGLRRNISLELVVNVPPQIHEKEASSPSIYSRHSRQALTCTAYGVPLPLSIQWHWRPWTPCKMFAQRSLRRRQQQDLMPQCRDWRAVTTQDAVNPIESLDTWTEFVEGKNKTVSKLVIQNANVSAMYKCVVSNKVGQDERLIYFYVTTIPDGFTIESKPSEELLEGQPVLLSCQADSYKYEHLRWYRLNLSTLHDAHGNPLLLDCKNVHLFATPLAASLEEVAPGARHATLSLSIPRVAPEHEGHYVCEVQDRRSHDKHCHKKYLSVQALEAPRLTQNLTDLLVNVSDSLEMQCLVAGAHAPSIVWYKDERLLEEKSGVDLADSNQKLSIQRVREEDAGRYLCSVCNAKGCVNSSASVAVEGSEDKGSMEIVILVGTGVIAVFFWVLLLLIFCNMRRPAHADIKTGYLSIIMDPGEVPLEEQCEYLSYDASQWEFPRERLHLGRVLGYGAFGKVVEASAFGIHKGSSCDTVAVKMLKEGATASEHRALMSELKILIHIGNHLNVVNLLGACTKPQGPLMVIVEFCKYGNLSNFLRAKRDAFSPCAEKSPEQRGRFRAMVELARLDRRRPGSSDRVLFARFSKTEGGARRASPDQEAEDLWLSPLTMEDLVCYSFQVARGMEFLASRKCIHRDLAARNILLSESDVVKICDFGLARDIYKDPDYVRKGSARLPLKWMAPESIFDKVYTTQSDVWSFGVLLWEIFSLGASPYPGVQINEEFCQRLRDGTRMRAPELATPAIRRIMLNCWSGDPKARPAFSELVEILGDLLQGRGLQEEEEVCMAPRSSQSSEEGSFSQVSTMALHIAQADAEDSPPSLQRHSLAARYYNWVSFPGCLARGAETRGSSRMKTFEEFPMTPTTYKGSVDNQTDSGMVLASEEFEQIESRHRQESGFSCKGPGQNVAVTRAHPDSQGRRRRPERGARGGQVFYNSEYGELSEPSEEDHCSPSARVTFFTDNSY
# Chain of UniProt P42336 (whole entry, unmodified, looked up): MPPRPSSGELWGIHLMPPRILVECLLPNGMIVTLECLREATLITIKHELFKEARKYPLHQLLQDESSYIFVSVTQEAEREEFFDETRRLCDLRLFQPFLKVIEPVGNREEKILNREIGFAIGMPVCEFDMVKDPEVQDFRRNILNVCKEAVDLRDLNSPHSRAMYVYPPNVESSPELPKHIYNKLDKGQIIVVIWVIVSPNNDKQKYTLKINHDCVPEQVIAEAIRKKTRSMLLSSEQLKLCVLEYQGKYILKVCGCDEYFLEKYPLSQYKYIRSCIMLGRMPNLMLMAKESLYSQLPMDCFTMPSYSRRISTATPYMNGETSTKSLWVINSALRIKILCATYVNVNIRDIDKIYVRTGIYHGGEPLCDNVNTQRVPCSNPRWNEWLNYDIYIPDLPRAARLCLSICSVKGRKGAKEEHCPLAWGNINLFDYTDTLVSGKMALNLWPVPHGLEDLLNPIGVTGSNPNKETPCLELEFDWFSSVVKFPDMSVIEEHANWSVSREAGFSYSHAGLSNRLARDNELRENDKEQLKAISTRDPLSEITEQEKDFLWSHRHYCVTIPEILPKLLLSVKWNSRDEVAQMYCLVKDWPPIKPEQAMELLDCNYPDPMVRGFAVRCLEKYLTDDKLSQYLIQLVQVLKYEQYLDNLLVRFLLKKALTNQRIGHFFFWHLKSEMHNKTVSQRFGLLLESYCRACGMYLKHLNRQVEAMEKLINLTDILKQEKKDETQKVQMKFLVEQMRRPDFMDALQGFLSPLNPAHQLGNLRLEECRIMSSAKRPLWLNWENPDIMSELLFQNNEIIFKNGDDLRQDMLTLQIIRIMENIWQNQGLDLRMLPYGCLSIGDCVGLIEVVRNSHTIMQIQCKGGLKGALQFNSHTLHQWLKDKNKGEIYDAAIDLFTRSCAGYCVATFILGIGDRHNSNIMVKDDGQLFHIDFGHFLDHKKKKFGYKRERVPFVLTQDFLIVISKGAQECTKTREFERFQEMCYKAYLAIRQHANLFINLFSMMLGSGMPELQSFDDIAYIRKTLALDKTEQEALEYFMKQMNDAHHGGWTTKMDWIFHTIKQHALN
# Chain of UniProt P08069 (whole entry, looked up): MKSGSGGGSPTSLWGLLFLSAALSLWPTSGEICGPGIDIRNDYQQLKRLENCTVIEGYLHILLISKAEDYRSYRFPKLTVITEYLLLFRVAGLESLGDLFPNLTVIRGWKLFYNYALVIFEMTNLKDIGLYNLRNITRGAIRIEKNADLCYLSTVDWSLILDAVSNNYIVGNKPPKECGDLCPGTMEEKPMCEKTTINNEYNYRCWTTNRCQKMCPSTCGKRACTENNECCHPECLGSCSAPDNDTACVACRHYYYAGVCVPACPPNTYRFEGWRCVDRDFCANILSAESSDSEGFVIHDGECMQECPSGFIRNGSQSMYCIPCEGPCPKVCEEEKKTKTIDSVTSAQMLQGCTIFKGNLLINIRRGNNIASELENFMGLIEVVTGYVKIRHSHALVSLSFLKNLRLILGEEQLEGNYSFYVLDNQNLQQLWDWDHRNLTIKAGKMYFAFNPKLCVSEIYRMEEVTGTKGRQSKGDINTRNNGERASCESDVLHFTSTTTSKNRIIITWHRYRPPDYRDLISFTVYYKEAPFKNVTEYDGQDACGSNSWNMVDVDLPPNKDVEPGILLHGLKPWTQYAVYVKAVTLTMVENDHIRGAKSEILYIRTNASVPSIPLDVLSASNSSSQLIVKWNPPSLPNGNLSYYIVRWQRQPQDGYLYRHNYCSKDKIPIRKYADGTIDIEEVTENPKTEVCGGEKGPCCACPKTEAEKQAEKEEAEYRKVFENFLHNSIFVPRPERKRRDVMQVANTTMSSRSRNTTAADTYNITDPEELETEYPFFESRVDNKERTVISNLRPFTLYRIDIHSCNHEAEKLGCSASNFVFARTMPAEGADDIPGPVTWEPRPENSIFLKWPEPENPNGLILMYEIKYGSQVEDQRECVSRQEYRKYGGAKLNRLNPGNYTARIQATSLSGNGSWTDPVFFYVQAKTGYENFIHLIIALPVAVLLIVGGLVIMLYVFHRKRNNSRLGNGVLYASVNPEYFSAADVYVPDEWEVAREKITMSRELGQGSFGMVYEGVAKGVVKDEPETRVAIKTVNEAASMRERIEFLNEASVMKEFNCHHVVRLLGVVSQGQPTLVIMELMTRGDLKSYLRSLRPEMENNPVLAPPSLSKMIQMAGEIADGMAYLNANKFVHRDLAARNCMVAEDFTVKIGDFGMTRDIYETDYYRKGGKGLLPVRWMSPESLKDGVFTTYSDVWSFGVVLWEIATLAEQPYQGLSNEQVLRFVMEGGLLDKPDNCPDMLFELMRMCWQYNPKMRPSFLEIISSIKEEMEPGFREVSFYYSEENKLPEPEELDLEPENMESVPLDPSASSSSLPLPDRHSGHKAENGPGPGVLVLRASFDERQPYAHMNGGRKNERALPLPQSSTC
# Chain of UniProt P27361 (whole entry, looked up): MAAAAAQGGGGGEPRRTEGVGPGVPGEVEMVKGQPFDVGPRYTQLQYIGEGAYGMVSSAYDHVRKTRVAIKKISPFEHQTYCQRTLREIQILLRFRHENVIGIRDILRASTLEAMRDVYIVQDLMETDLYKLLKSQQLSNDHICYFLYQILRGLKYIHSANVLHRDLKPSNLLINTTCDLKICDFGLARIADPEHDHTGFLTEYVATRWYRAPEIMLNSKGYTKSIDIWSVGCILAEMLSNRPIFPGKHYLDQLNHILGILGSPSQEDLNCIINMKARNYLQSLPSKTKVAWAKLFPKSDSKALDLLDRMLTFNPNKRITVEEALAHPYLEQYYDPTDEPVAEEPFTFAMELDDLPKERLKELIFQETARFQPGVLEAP

# Series 1
# SMILES: COc1cc(C(=O)N2CCC(N3CCN(C)CC3)CC2)ccc1Nc1ncc2c(n1)N(C)c1ccccc1C(=O)N2C
target or system,test,system,setting,inhibition [%]
human PBMC,"probe labeling, inhibitor, KiNativ profiling",cell lysate,"concentration not given, domain 1, LYS1 site, with: ADP acyl-phosphate probe 0.1 µM",-4.2
SGK3 (mouse),"probe labelling, KiNativ, measured: FYAVkVLQK peptide, LYS1 site",brain tissue lysate (mouse),"0.1 µM, with: ATP acyl-phosphate probe",-24.8
DCLK1,KiNativ ADP probe,mouse brain lysate,"1 µM, LYS1 site",66.5
CSK human,KiNativ profiling,human PBMC,"concentration not given, activation loop site, with: ATP acyl phosphate probe",10.4
TNIK (mouse),"probe labelling, inhibitor, KiNativ ActivX ADP probe",mouse brain lysate,"0.1 µM, Lys1 site peptide",3.3
AKT1 (mouse),"probe labelling, KiNativ, measured: GTFGkVILVK peptide, ATP loop",brain tissue lysate (mouse),"1 µM, with: ATP acyl-phosphate probe",3
MARK1 (mouse),"probe labelling, KiNativ ADP probe",mouse brain lysate,"0.1 µM, LYS1 labelled site",2.8
NEK1 (mouse),"probe labelling, KiNativ, measured: DIkSQNIFLTK peptide, LYS2 site",brain tissue lysate (mouse),"1 µM, with: ATP acyl-phosphate probe",-13.8

# Series 2
# Compound: CO[C@H]1CC[C@H](CNc2ccc(S(=O)(=O)NC(=O)c3ccc(N4CCN(CC5=C(c6ccc(Cl)cc6)CC(C)(C)CC5)CC4)cc3Oc3cnc4[nH]ccc4c3)cc2[N+](=O)[O-])CC1
# Tested at: 1 µM
target,test,remaining binding
"MAPK3 (Homo sapiens, UniProt P27361)","cell-free assay, competition with immobilised ligand",80%
"Ribosomal protein S6 kinase alpha-5, C-terminal kinase domain (RPS6KA5, Homo sapiens, UniProt O75582)","cell-free assay, competition with immobilised ligand",90%
"IGF1R (Homo sapiens, UniProt P08069)","cell-free assay, competition with immobilised ligand",82%
"FLT4 (Homo sapiens, UniProt P35916)","cell-free assay, competition with immobilised ligand",89%
"PIK3CA (Homo sapiens, UniProt P42336, H1047L)","cell-free assay, competition with immobilised ligand",90%
"Tyrosine-protein kinase ABL1, non-phosphorylated (ABL1, Homo sapiens, UniProt P00519, T315I)","cell-free assay, competition with immobilised ligand",100%
"Tyrosine-protein kinase ABL1, phosphorylated (ABL1, Homo sapiens, UniProt P00519, F317I)",binding,100%
"PNCK (Homo sapiens, UniProt Q6P2M8)","cell-free assay, competition with immobilised ligand",81%
"PTK6 (Homo sapiens, UniProt Q13882)","cell-free assay, competition with immobilised ligand",100%
"CSNK1G2 (Homo sapiens, UniProt P78368)","cell-free assay, competition with immobilised ligand",80%

# Series 3
# Host: human
# Medium: microsomes or S9
# Tested at: 2 µM
# Time: 0.5 h
SMILES,remaining compound
c1ccc(Cn2c(-c3ccc(Oc4ccccc4)cc3)cn3ncnc23)cc1,33.9%
CCOC(=O)CC1C(=O)NCCN1S(=O)(=O)c1ccc(C)cc1 (centres unmarked),59.7%
Cc1cc2c(cc1S(=O)(=O)N(C)CC1OC3CCCCC3c3sccc31)NC(=O)CO2 (centres unmarked),85.8%
Cc1cc(CNc2ccc(-c3nc(CCCc4ccccc4)no3)cn2)n[nH]1,92.6%
CCCNC(=O)NC(=O)CNC1(C(=O)OC(C)(C)C)CCCC1,1.91%
CCCN(CCC)c1nc(N)nc(-c2noc(C)n2)n1,35.7%

# Series 4
# SMILES: CC(C)n1cnc(-c2ccc(F)cc2)c1-c1ncc(C(=O)Nc2ccc(N3CCN(C)CC3)cc2)[nH]1
# Technique: phase 2a clinical trial
# Host: patients with idiopathic pulmonary fibrosis
test,setting,patients with treatment-emergent adverse events [%]
measured: C-reactive protein increased,"30 mg once daily, Grade 4",0
measured: idiopathic pulmonary fibrosis,"60 mg once daily, Grade 1",0
measured: C-reactive protein increased,"30 mg once daily, Grade 3",0
measured: hepatic function abnormal,"dose not given, Grade 4, all drug arms total",0
measured: lumbar vertebral fracture,"dose not given, Grade 1, maximum intensity, all drug arms total",0

# A few entries again (series 2):
target,test,remaining binding
"FLT4 (Homo sapiens, UniProt P35916)","cell-free assay, competition with immobilised ligand",89%
"PIK3CA (Homo sapiens, UniProt P42336, H1047L)","cell-free assay, competition with immobilised ligand",90%
